Assay results collected from several papers.
Values joined by “and” are separate records of one study, mostly repeats; a detail may differ.
Nuclear receptor subfamily 2 group C member 2 ligand-binding domain: Nuclear receptor subfamily 2 group C member 2, ligand-binding domain (Homo sapiens, UniProt P49116)
Chain of UniProt O14980 (whole entry, looked up): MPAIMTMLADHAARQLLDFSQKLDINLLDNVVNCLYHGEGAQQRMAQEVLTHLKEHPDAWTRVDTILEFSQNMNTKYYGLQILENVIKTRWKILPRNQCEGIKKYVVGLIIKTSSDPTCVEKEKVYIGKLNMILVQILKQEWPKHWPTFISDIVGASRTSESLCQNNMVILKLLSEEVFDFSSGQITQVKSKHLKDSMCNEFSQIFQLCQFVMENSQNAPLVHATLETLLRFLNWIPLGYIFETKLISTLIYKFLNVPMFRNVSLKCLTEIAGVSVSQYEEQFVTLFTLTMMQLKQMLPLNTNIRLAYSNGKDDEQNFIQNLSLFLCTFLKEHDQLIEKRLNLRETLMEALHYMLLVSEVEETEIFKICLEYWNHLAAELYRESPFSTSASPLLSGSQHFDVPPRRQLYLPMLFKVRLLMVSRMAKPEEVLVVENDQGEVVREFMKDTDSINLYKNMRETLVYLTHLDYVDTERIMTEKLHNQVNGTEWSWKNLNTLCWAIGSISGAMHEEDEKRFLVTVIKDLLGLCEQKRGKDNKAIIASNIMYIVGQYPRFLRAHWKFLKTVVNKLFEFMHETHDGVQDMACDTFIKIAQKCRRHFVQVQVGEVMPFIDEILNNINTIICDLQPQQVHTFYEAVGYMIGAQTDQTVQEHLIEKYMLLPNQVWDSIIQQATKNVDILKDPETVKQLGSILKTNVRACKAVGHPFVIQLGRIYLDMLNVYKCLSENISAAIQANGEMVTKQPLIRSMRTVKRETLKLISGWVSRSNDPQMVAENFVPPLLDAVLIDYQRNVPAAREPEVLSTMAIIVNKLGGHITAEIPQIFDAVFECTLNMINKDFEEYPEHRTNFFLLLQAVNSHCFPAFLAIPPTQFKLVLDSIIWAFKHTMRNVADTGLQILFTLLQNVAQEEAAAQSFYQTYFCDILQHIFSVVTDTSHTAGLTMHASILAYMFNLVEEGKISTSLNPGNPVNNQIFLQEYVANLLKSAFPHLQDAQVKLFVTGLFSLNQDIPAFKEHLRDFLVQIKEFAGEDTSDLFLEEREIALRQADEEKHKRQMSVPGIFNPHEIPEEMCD
Chain of UniProt P49116 (whole entry, looked up): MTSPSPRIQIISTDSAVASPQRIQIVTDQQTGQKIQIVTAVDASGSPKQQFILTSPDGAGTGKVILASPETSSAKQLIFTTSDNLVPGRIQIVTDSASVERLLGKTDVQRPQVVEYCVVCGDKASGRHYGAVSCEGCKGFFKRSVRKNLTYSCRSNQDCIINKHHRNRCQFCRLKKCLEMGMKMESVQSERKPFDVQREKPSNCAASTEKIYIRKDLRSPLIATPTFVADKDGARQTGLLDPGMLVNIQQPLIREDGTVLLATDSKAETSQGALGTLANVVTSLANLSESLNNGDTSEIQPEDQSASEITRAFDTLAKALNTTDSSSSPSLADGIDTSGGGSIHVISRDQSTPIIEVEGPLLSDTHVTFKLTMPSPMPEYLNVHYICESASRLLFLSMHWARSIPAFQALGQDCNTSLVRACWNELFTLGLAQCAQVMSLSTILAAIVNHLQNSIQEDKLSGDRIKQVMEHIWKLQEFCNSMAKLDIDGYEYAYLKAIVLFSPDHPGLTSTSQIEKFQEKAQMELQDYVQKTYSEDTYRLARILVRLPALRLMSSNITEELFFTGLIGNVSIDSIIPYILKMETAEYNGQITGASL
Chain of UniProt P31941 (whole entry, looked up): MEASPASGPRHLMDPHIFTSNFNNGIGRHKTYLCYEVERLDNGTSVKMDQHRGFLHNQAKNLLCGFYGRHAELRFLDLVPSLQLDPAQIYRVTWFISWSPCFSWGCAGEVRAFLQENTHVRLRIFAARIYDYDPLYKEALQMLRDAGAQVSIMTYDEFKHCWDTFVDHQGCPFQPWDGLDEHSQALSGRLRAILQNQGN
Chain of UniProt Q14957 (whole entry, looked up): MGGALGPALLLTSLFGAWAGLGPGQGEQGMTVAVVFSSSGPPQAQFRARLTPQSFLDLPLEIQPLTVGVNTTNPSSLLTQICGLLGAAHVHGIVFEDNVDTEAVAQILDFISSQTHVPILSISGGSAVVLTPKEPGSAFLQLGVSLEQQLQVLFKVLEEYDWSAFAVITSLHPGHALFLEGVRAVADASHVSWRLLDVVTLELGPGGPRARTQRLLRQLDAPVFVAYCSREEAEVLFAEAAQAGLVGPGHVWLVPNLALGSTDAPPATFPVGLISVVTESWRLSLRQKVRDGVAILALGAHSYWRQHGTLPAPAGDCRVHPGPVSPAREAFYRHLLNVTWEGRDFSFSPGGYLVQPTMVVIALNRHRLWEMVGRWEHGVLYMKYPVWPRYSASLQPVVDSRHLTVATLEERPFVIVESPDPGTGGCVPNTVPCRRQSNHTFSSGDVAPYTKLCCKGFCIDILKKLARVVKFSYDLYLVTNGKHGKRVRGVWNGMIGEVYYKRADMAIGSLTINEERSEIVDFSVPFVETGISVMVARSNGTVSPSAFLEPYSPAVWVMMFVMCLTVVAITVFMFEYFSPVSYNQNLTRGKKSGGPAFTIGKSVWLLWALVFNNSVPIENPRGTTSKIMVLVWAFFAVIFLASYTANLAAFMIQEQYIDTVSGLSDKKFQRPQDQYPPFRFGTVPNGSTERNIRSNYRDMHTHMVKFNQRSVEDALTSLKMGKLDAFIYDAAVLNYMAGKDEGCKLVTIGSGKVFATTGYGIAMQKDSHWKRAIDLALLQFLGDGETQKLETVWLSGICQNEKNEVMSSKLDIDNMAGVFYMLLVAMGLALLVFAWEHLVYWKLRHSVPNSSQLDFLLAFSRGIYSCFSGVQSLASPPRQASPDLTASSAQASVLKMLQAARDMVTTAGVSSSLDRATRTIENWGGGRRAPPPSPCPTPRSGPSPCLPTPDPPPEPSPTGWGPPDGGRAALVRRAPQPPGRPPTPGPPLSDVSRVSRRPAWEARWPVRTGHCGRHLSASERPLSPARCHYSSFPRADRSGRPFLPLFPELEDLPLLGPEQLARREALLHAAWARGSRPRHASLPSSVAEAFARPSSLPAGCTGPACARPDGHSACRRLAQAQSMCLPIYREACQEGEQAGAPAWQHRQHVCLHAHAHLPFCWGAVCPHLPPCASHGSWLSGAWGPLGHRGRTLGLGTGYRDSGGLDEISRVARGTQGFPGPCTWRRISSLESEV
Chain of UniProt P40763 (whole entry, looked up): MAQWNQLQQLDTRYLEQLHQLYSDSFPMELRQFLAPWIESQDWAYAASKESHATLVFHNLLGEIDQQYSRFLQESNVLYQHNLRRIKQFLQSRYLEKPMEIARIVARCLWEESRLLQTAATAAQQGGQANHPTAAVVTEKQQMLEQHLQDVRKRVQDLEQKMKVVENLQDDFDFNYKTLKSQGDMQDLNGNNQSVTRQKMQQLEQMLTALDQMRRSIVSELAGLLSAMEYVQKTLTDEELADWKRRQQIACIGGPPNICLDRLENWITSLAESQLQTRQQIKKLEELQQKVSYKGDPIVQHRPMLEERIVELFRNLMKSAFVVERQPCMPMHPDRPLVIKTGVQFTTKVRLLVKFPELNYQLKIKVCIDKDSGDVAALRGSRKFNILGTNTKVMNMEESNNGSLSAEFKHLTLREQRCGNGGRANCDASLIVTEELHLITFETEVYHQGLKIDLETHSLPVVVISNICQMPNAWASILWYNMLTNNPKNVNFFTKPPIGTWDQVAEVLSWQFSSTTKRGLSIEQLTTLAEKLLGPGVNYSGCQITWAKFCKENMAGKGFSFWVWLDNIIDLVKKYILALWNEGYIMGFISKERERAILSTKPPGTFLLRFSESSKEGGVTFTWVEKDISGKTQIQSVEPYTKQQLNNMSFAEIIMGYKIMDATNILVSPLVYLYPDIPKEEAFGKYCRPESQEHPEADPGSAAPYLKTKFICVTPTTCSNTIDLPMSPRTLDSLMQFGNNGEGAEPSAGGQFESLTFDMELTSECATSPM
Chain of UniProt Q9UPZ9 (whole entry, looked up): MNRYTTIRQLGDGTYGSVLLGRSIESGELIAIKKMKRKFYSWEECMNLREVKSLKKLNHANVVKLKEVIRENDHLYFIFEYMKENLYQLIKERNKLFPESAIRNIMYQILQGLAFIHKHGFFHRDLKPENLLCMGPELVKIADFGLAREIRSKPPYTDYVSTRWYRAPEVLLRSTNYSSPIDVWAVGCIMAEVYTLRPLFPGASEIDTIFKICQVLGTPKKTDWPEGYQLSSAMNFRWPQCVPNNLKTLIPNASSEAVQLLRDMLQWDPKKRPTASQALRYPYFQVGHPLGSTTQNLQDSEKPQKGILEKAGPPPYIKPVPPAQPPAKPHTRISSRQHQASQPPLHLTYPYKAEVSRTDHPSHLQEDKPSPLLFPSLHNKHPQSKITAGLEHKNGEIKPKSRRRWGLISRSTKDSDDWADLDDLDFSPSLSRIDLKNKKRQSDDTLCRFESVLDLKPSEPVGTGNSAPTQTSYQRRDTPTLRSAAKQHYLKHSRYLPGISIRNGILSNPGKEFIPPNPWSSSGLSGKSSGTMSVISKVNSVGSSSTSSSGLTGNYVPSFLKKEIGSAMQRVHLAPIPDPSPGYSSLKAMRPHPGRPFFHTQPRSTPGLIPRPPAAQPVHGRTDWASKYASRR
Chain of UniProt Q9UIK4 (whole entry, looked up): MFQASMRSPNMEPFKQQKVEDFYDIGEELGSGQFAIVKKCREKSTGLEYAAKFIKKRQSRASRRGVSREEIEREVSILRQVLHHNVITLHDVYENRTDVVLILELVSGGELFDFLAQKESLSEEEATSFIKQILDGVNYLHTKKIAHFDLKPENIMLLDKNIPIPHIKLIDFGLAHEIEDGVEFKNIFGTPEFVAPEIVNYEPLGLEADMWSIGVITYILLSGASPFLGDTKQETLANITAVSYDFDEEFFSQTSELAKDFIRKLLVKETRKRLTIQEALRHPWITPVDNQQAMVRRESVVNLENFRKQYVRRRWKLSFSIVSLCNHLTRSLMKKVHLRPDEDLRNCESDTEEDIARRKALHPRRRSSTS

CC[S+]([O-])c1nc(-c2ccccc2)cc(C(F)(F)F)n1 (stereo not shown)
cells with nuclear reporter (Exportin-1 (XPO1, Homo sapiens, UniProt O14980); nuclear export, high content imaging; HeLa Kyoto reporter; 0.5 µM, 2 h): 2.14% and 5.4% and 3.98%

COc1ccc2c(c1)C(=O)N(CCN1CCN(c3ccccc3OC)CC1)C2
inhibition (5-hydroxytryptamine receptor 4 (HTR4, Homo sapiens, UniProt Q13639); radioligand binding; concentration not given): 11.8%

CCC1(O)CCCN(C(=O)c2ccc(-c3ccc(F)c(NC(=O)CCl)c3)cc2)C1 (stereo not shown)
unmodified protein (DNA dC->dU-editing enzyme APOBEC-3A (Homo sapiens, UniProt P31941); covalent adduct, intact protein MS; 1 h, 1-fold, 25 µM): 64% and 76%

CCC1=C(C)CN(C(=O)NCCc2ccc(S(=O)(=O)NC(=O)N[C@H]3CC[C@H](C)CC3)cc2)C1=O
koff (Nuclear receptor subfamily 2 group C member 2 ligand-binding domain; SPR imaging; 600 nM): 9.51e-07 s⁻¹

C[C@H](CCC(C)(C)O)[C@H]1CC[C@H]2[C@@H]3CC=C4C[C@@](C)(O)CC[C@]4(C)[C@H]3CC[C@]12C
potentiation (Ionotropic glutamate receptor NMDA 1/2C (Homo sapiens, UniProt Q05586+Q14957); ion current, positive allosteric modulator, automated patch clamp; HEK293; concentration not given, with: 0.8 µM glutamate, glycine): no effect

O=C(NC1CCC1)c1ccc2nc(-c3cccc(NS(=O)(=O)NCCN4CCCCC4)c3)cn2c1
remaining activity (G protein-coupled receptor kinase 3 (GRK3, Homo sapiens, UniProt P35626); enzyme activity; 10 µM): 100%

CN(C(=O)n1cnc(-c2ccc[n+]([O-])c2)c1)C1CCCCC1
ED50 (Fatty-acid amide hydrolase 1 (Faah, Mus musculus, UniProt O08914); enzyme activity, inhibitor; NMRI mouse, brain; oral, 8 h): 0.027 mg/kg

O=C1OC(c2ccccc2)=N/C1=C\c1ccccc1
Vmax (Alpha-glucosidase MAL12 (MAL12, Saccharomyces cerevisiae S288c, UniProt P53341); inhibitor, Lineweaver-Burk; 3200 ppm, with: pNPG substrate): 0.01 mM/min

C=C1/C(=C\C=C2/CCC[C@]3(C)[C@@H]([C@H](C)/C=C/[C@H](C)C(C)C)CC[C@@H]23)C[C@@H](O)C[C@@H]1O
koff (Nuclear receptor subfamily 2 group C member 2 ligand-binding domain; SPR imaging; 600 nM): 2.67e-07 s⁻¹

c1ccc(-c2n[nH]cc2-c2ccnc3ccccc23)nc1
log2 fold change (Serine/threonine-protein kinase CBK1 (CBK1, Candida albicans, UniProt Q5AP53); kinase binding, competitor, MIB/MS competition, measured: CBK1; Candida albicans cell lysate; 100 nM; relative to: DMSO): 1.48

O=c1nc(SCc2cc(F)cc(C(F)(F)F)c2)nc(SCc2ccc3nc(Cl)ccc3c2)[nH]1
mean relaxed DNA (DNA topoisomerase 2-alpha (TOP2A, Homo sapiens, UniProt P11388); DNA relaxation; 7.8 µM): 99.6%

CC(=O)c1ccc2cc(S(=O)(=O)Nc3ccccn3)ccc2c1
log IC50 (Signal transducer and activator of transcription 3 (STAT3, Homo sapiens, UniProt P40763); tyrosine phosphorylation, inhibitor, ELISA, measured: phospho-Tyr705): 0.933

C=CC(=O)N1CCC(COCC(=O)N2CCN(c3nc(-c4cnc(N)nc4C(F)F)nc(N4CCOC[C@@H]4C)n3)CC2)CC1
remaining binding (Serine/threonine-protein kinase ICK (CILK1, Homo sapiens, UniProt Q9UPZ9); KINOMEscan; 1 µM): 75%

O=C(O)[C@@H]1CCCN1c1ncnc2[nH]cnc12 (racemic)
log fold enrichment (YTH domain-containing protein 1 (Homo sapiens, UniProt Q96MU7); binding, affinity selection mass spectrometry; relative to: other proteins in batch): -0.0605

COc1cc(-c2cncc3c2CN(C)Cc2cc(N4CCNCC4)ccc2-3)cc(OC)c1OC
remaining activity (Death-associated protein kinase 2 (DAPK2, Homo sapiens, UniProt Q9UIK4); kinase activity; 1 µM, human enzyme, with: ATP 10 µM; relative to: DMSO control): 108%

CN=C(NC)NCCC[C@H](NC(=O)[C@H](C)N)C(=O)N[C@H](C(=O)N[C@@H](CCCCN)C(=O)N[C@@H](CCC(N)=O)C(=O)N[C@H](C(=O)N[C@@H](C)C(=O)N[C@@H](CCCNC(=N)N)C(=O)N[C@@H](CCCCN)C(=O)N[C@@H](CO)C(=O)O)[C@@H](C)O)[C@@H](C)O
binding free energy (Transcriptional regulator ATRX (ATRX, Homo sapiens, UniProt P46100, F284Y/K251R); isothermal titration calorimetry; pH 7.5, 25.0 °C): -6.87 kcal/mol

Some of these lines once more:
CN=C(NC)NCCC[C@H](NC(=O)[C@H](C)N)C(=O)N[C@H](C(=O)N[C@@H](CCCCN)C(=O)N[C@@H](CCC(N)=O)C(=O)N[C@H](C(=O)N[C@@H](C)C(=O)N[C@@H](CCCNC(=N)N)C(=O)N[C@@H](CCCCN)C(=O)N[C@@H](CO)C(=O)O)[C@@H](C)O)[C@@H](C)O
binding free energy (Transcriptional regulator ATRX (ATRX, Homo sapiens, UniProt P46100, F284Y/K251R); isothermal titration calorimetry; pH 7.5, 25.0 °C): -6.87 kcal/mol

O=C(NC1CCC1)c1ccc2nc(-c3cccc(NS(=O)(=O)NCCN4CCCCC4)c3)cn2c1
remaining activity (G protein-coupled receptor kinase 3 (GRK3, Homo sapiens, UniProt P35626); enzyme activity; 10 µM): 100%
